# Published values of several laboratories.
# Compare with care: the assays were run in different laboratories. ± marks the error that the study gave.
# Cell line: Caco-2 monolayers
test,setting,how to read,measurement,result,SMILES
,together with: verapamil 50 µM,reference: B-A over A-B,efflux ratio,1.28,O=C(CS)NCCCCCC(=O)Nc1cccc2cccnc12
"bidirectional transport, HPLC-UV","100 µg/mL, 2 h",reference: BL→AP over AP→BL,efflux ratio,> 2,COc1ccc2c(c1OC)C(=O)O[C@@H]2[C@H]1c2c(cc3c(c2OC)OCO3)CCN1C
,"100 µg/mL, 2 h",reference: Papp(BL-AP) over Papp(AP-BL),efflux ratio,0.29,O=c1cc(-c2ccccc2)oc2cc(O)c(O)c(O)c12
"bidirectional transport, HPLC-UV","100 µg/mL, 2 h",reference: BL→AP over AP→BL,efflux ratio,> 2,N[C@@H](Cc1ccc(O)c(O)c1)C(=O)O
,"5 µM, 2 h, pH apical 6.5, basolateral 7.4",,Papp (A to B),0.17 ×10⁻⁶ cm/s,CC(C)c1nc(N(C)S(C)(=O)=O)nc(-c2ccc(F)cc2)c1/C=C/[C@@H](O)C[C@@H](O)CC(=O)O
apical to basolateral transport,"100 µg/mL, 2 h",,amount transported,13.8 ± 0.7%,COc1ccc(CCC(=O)c2c(O)cc(O[C@@H]3O[C@H](CO)[C@@H](O)[C@H](O)[C@H]3O[C@@H]3O[C@@H](C)[C@H](O)[C@@H](O)[C@H]3O)cc2O)cc1O
,"1 mM, pH 7.4, apical pH effect",,Papp,inhibited,O=C(O)C=Cc1ccc(O)cc1
basolateral to apical transport,"100 µg/mL, 2 h",,amount transported,17.4 ± 0.7%,COc1ccc([C@@H]2CC(=O)c3c(O)cc(O)cc3O2)cc1O
,"concentration not given, 180 min, basolateral to apical, together with: calcium-free HBSS",reference: HBSS with calcium,Papp fold increase,57.2 fold,CC(=O)N[C@H]1[C@H]([C@H](O)[C@H](O)CO)OC(C(=O)O)=C[C@@H]1N=C(N)N
